{"data": "Measured values gathered from unrelated publications", "note": "A part holds a random share of what one study measured.", "chain of UniProt P53671 (whole entry, looked up)": "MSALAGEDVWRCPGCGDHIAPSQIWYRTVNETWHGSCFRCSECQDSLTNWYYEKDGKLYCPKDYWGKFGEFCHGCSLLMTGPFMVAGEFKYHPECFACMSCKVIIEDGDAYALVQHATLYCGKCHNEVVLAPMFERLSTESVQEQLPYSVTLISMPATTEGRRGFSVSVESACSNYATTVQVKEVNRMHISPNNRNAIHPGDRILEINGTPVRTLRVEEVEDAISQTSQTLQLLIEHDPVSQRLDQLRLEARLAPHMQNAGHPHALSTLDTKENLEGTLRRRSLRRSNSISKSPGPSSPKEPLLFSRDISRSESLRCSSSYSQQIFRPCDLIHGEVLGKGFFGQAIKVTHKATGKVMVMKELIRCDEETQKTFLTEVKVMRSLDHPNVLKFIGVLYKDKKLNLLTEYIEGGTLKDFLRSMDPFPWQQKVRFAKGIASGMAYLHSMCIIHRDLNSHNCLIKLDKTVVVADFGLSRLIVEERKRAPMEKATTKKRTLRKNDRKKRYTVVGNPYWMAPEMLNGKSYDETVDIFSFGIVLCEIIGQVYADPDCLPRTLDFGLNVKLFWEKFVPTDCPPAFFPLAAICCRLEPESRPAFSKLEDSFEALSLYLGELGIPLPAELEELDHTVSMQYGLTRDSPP", "chain of UniProt Q15759 (whole entry, looked up)": "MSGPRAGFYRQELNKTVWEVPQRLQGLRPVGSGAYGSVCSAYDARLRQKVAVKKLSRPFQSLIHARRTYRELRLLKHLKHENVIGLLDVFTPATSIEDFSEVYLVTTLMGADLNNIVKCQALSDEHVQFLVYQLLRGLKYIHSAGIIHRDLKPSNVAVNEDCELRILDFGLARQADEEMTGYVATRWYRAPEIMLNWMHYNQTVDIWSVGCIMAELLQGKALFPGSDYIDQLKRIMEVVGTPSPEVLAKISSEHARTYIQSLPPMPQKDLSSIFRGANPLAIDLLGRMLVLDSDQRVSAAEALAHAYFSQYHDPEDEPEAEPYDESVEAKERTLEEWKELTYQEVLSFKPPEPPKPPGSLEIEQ", "chain of UniProt O94806 (whole entry, looked up)": "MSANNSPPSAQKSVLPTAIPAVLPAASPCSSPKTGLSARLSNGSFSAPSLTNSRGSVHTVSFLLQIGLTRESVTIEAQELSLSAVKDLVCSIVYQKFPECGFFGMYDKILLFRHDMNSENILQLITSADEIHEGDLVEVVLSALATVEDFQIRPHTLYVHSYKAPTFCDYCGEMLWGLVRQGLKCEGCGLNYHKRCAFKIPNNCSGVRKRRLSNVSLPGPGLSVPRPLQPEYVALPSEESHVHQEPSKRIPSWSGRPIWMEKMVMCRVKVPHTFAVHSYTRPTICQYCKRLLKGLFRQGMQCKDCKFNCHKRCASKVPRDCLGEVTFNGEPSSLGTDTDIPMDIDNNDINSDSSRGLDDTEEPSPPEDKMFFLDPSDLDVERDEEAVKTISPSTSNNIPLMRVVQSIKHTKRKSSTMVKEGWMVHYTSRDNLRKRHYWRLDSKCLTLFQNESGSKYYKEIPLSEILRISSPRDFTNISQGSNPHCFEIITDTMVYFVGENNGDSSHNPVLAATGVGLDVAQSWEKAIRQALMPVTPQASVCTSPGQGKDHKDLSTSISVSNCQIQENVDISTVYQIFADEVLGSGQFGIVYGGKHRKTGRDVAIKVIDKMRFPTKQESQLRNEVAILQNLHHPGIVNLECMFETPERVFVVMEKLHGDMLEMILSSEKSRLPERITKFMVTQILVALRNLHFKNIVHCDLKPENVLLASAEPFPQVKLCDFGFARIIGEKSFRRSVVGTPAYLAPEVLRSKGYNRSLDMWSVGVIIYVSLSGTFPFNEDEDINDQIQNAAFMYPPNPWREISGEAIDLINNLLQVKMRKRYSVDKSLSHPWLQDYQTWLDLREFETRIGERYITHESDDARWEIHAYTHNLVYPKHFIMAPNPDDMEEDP", "chain of UniProt P29597 (whole entry, looked up)": "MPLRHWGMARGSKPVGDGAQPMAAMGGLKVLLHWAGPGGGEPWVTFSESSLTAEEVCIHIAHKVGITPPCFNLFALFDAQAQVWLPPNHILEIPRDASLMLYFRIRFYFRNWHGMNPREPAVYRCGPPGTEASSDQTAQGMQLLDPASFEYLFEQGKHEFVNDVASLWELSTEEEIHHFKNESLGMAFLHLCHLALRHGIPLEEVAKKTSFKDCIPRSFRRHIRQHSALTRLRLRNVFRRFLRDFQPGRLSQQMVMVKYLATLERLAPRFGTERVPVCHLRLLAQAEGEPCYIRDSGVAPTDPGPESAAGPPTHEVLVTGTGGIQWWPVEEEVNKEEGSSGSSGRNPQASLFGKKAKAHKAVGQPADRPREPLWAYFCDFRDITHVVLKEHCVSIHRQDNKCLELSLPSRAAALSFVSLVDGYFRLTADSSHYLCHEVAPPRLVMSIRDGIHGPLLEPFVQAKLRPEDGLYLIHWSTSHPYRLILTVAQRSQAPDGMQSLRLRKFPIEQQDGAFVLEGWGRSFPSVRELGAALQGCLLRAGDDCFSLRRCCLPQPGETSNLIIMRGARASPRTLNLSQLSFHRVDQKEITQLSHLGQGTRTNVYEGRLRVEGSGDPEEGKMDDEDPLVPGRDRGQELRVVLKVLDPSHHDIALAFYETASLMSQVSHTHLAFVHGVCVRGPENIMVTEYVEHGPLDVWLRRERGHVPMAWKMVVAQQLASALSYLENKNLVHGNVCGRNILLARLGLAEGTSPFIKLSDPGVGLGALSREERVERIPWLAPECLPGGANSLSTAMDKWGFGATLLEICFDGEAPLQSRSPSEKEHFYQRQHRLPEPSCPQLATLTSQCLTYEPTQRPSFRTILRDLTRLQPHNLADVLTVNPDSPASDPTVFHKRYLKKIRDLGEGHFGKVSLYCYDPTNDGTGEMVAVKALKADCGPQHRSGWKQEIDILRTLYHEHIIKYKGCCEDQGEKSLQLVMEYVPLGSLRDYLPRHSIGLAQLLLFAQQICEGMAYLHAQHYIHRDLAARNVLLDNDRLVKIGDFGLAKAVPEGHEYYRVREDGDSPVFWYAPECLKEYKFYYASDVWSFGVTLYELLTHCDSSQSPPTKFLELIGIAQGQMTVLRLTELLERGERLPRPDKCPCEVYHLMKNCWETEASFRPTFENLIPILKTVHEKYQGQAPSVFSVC", "chain of UniProt P51956 (whole entry, looked up)": "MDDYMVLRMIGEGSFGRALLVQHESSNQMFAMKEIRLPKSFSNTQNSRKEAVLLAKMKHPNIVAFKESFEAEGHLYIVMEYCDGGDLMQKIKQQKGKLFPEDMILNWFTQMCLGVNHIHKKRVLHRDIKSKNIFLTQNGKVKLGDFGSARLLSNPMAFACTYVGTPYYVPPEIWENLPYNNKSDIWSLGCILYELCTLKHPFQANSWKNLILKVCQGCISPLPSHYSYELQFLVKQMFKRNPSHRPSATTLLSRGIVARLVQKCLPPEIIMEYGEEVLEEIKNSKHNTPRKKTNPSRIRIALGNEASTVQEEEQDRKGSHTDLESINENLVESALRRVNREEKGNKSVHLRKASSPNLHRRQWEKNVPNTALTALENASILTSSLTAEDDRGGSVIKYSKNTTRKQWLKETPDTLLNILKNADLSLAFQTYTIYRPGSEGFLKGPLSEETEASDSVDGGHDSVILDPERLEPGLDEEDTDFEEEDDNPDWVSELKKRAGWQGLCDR"}
{"data": "Series 1", "target": "Protein C-ets-1 (ETS1, Homo sapiens, UniProt P14921, residues 1-441, full length assumed)", "technique": "protein-binding microarray", "molecule type": "double-stranded DNA, one strand shown", "matrix": "in vitro", "concentration": "not given", "setting": "k-mer, scored over probes, only values ≥0.25", "direction": "higher = stronger binding", "Residues (chain)": "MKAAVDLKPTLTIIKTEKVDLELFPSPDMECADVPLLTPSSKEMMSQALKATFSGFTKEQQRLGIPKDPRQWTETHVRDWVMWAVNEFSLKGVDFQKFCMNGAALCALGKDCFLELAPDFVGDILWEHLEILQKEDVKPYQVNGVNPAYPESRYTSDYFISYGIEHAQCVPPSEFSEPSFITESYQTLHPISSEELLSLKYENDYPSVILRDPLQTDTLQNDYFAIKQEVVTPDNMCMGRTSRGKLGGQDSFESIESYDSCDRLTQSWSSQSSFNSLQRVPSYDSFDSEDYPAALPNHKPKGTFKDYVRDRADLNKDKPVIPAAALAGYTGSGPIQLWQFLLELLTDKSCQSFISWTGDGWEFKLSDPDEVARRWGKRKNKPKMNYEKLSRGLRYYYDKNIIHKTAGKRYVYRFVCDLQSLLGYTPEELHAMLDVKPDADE"}
{"Oligonucleotide": "GAGCGGAA", "E-score": 0.461}
{"Oligonucleotide": "GTGACGGA", "E-score": 0.301}
{"Oligonucleotide": "AGATCCGC", "E-score": 0.253}
{"Oligonucleotide": "CTTGCGGA", "E-score": 0.267}
{"Oligonucleotide": "GGAAATTA", "E-score": 0.428}
{"Oligonucleotide": "CGTCCGCA", "E-score": 0.345}
{"Oligonucleotide": "ATTTCCGC", "E-score": 0.478}
{"Oligonucleotide": "GAAATTTC", "E-score": 0.306}
{"data": "Series 2", "SMILES": "Cc1c(NC(=O)c2cc(C(N)=O)nc3cc(F)ccc23)c(C(F)(F)F)nn1Cc1ccc(C(C)(C)C)cc1", "read-out": "cell-free assay", "technique": "competition with immobilised ligand", "concentration": "1 µM"}
{"target": "NEK3 (Homo sapiens, UniProt P51956)", "remaining binding [%]": 100}
{"target": "MAPK11 (Homo sapiens, UniProt Q15759)", "remaining binding [%]": 91}
{"target": "PRKD3 (Homo sapiens, UniProt O94806)", "remaining binding [%]": 100}
{"target": "Non-receptor tyrosine-protein kinase TYK2, JH1 (TYK2, Homo sapiens, UniProt P29597)", "remaining binding [%]": 100}
{"target": "LIM domain kinase 2 (LIMK2, Homo sapiens, UniProt P53671)", "remaining binding [%]": 84}
{"data": "Series 3", "species": "human", "matrix": "microsomes or S9", "concentration": "2 µM", "time": "0.5 h"}
{"SMILES": "Fc1ccc(CNc2nc3ncc(Br)nc3s2)cc1", "remaining compound [%]": 54.1}
{"SMILES": "CCOc1cc(CNCCc2nc(C)oc2C)ccc1OCC(=O)Nc1ccccc1", "remaining compound [%]": 88.1}
{"SMILES": "Cc1nc(C2=C(N)N(C3CS(=O)(=O)CC3O)CC2=O)sc1C (centres unmarked)", "remaining compound [%]": "> 99"}
{"SMILES": "OCc1onc2c1CCOC2c1ccc(Cl)cc1 (centres unmarked)", "remaining compound [%]": 72.3}
{"data": "Series 4", "target": "Dual specificity tyrosine-phosphorylation-regulated kinase 4 (DYRK4, Homo sapiens, UniProt Q9NR20)", "read-out": "enzyme activity", "mode": "inhibitor", "concentration": "0.5 µM", "relative to": "control", "chain of UniProt Q9NR20 (whole entry, looked up)": "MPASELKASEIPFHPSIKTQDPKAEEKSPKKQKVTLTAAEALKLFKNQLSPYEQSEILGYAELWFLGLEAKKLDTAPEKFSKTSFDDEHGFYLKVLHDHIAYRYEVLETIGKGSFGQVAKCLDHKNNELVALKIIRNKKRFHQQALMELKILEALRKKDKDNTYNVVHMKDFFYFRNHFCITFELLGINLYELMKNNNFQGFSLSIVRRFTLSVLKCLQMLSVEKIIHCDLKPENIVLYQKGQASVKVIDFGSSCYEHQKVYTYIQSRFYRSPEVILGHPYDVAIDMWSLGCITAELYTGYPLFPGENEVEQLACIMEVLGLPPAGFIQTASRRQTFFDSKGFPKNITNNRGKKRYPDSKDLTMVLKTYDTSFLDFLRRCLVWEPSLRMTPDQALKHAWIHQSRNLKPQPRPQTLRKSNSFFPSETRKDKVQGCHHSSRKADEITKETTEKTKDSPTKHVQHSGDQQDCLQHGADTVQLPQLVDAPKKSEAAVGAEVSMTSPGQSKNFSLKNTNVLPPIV"}
{"SMILES": "Cc1ccc(S(=O)(=O)/C=C/C#N)cc1", "remaining activity": "95.1%"}
{"SMILES": "CCN(CC)CCCCN1c2ccccc2Oc2ccc(Cl)cc21", "remaining activity": "100%"}
{"SMILES": "Nc1nc(Nc2ccc(S(N)(=O)=O)cc2)nn1C(=S)Nc1c(F)cccc1F", "remaining activity": "96.5%"}
{"SMILES": "CC(C)(C)c1nc2c3cc[nH]c(=O)c3c3cc(F)ccc3c2[nH]1", "remaining activity": "104%"}
{"SMILES": "CC(C)n1cnc2c(Nc3cccc(Cl)c3)nc(NCCO)nc21", "remaining activity": "91.2%"}
{"SMILES": "O=C(c1ccccc1)c1ccc(N2CCOCC2)cc1O", "remaining activity": "94.9%"}
{"SMILES": "O=C1NC(=O)/C(=C/c2ccc3c(c2)OC(F)(F)O3)S1", "remaining activity": "97.7%"}
{"SMILES": "O=Nc1c(-c2c(O)[nH]c3cc(Br)ccc23)[nH]c2ccccc12", "remaining activity": "99.4%"}
{"SMILES": "NC(=O)c1ccc(-c2nc(-c3ccc4c(c3)OCCO4)c(-c3ccccn3)[nH]2)cc1", "remaining activity": "85.6%"}
{"SMILES": "N#CC(c1ccnc(NCCc2cccnc2)n1)c1nc2ccccc2s1 (centres unmarked)", "remaining activity": "65%"}
{"SMILES": "O=C1NC(=O)c2c1c1c3ccccc3[nH]c1c1[nH]c3cc(Br)ccc3c21", "remaining activity": "86%"}
{"SMILES": "c1cc(-c2cnn3cc(-c4ccc(OCCN5CCCCC5)cc4)cnc23)ccn1", "remaining activity": "93%"}
{"SMILES": "O=C1NC(=O)c2c1c1c3ccccc3[nH]c1n1cncc21", "remaining activity": "107%"}
{"SMILES": "O=C1Cc2c([nH]c3ccc(Br)cc23)-c2ccccc2N1", "remaining activity": "97.2%"}
{"SMILES": "N#Cc1cnc2cnc(NCc3cccnc3)cc2c1Nc1ccc(F)c(Cl)c1", "remaining activity": "84.4%"}
{"SMILES": "CN(C)S(=O)(=O)c1ccc2c(c1)/C(=C/c1cc3c([nH]1)CCCC3)C(=O)N2", "remaining activity": "98.2%"}
{"SMILES": "O=c1cc(N2CCOCC2)oc2c(-c3ccccc3)cccc12", "remaining activity": "91.9%"}
{"SMILES": "COc1cc2c(N3CCN(C(=O)Nc4ccc(OC(C)C)cc4)CC3)ncnc2cc1OCCCN1CCCCC1", "remaining activity": "102%"}
{"SMILES": "CCCCc1c(-c2ccc(O)cc2)[nH]c2nccnc12", "remaining activity": "99.7%"}
{"data": "Other studies, line by line", "cell line": "HaCaT", "concentration": "100 µM", "time": "36 h"}
{"SMILES": "CC(C)(C)NCC(O)COc1cccc2c1CCC(=O)N2 (centres unmarked)", "viability": "88.7%"}
{"SMILES": "CCOc1nc2cccc(C(=O)OC(C)OC(=O)OC3CCCCC3)c2n1Cc1ccc(-c2ccccc2-c2nnn[nH]2)cc1 (centres unmarked)", "viability": "5.21%"}
{"note": "Excerpt of the above (series 3):"}
{"SMILES": "Fc1ccc(CNc2nc3ncc(Br)nc3s2)cc1", "remaining compound [%]": 54.1}
{"SMILES": "OCc1onc2c1CCOC2c1ccc(Cl)cc1 (centres unmarked)", "remaining compound [%]": 72.3}
{"SMILES": "CCOc1cc(CNCCc2nc(C)oc2C)ccc1OCC(=O)Nc1ccccc1", "remaining compound [%]": 88.1}
{"SMILES": "Cc1nc(C2=C(N)N(C3CS(=O)(=O)CC3O)CC2=O)sc1C (centres unmarked)", "remaining compound [%]": "> 99"}
